Results gathered from unrelated publications.
Compare with care: the assays were run in different laboratories. Several values in a cell are separate wells, animals, samples, runs or records. Numbers after ± are the reported error.
Grik2: Glutamate receptor ionotropic, kainate 2 (Grik2, Rattus norvegicus, UniProt P42260)
Chain of UniProt P42260 (whole entry, looked up): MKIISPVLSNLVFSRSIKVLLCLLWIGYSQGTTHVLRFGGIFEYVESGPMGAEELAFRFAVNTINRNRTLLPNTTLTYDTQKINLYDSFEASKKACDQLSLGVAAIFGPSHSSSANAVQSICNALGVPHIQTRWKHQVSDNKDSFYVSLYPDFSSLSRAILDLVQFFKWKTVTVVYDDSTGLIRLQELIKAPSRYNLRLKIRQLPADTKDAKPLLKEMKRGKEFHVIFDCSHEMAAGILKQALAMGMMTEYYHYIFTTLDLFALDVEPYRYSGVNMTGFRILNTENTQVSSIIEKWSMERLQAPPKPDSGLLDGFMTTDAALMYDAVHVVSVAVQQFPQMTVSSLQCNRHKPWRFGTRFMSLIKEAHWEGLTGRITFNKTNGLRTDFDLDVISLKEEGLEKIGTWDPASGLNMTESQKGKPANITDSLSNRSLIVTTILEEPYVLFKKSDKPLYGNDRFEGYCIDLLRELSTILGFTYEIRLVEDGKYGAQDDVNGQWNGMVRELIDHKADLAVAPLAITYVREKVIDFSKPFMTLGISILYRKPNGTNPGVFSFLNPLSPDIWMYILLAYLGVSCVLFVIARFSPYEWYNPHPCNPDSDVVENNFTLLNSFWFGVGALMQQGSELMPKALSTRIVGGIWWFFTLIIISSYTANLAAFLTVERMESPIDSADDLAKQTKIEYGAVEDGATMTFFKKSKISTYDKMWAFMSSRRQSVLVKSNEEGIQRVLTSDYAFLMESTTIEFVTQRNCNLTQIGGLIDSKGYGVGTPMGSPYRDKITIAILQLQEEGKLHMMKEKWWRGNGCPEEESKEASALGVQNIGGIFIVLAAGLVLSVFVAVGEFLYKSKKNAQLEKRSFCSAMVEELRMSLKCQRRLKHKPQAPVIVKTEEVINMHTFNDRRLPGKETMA
Kir3.1/Kir3.2: Kir3.1/Kir3.2 (Homo sapiens, UniProt P48051+P48549)
Chain of UniProt P48051 (whole entry, looked up): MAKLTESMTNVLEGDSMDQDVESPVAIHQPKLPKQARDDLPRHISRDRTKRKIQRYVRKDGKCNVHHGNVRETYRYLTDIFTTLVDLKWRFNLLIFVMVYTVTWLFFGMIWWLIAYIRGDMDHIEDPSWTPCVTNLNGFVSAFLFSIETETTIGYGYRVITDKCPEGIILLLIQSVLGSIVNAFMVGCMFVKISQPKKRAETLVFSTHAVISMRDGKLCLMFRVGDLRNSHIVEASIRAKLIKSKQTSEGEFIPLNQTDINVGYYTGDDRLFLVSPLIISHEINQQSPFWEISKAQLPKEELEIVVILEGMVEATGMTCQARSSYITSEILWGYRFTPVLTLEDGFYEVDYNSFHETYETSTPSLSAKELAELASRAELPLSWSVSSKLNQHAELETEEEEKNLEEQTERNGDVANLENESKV
Chain of UniProt P48549 (whole entry, looked up): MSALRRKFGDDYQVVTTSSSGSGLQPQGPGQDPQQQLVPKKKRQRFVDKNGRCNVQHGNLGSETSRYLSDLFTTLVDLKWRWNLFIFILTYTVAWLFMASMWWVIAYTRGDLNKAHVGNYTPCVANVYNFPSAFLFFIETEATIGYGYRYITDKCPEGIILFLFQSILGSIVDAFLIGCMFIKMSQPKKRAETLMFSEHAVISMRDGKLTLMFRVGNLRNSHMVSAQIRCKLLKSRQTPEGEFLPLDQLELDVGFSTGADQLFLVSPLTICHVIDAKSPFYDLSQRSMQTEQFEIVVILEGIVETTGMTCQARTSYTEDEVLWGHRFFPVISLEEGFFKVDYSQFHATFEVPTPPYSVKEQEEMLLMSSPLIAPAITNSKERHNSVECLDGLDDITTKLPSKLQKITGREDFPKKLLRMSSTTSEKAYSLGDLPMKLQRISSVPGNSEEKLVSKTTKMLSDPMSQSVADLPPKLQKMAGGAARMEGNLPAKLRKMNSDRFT
Ephx2: Bifunctional epoxide hydrolase 2 (Ephx2, Mus musculus, UniProt P34914)
Chain of UniProt P34914 (whole entry, looked up): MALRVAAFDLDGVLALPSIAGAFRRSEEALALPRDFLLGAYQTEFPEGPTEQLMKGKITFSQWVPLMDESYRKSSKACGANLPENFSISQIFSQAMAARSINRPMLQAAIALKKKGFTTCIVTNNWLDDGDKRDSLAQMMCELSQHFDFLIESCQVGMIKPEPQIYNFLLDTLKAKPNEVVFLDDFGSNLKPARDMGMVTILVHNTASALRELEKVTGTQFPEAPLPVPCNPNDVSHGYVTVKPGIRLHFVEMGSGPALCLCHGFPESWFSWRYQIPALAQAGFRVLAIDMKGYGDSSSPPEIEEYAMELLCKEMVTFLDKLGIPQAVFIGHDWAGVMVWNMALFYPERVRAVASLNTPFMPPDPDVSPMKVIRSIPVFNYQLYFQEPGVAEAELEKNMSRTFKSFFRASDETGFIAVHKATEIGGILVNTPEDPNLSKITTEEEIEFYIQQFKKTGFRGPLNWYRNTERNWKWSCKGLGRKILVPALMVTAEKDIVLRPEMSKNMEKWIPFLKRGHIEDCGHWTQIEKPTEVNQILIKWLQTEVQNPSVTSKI
BACE1: Beta-secretase 1 (BACE1, Homo sapiens, UniProt P56817)
Chain of UniProt P56817 (whole entry, looked up): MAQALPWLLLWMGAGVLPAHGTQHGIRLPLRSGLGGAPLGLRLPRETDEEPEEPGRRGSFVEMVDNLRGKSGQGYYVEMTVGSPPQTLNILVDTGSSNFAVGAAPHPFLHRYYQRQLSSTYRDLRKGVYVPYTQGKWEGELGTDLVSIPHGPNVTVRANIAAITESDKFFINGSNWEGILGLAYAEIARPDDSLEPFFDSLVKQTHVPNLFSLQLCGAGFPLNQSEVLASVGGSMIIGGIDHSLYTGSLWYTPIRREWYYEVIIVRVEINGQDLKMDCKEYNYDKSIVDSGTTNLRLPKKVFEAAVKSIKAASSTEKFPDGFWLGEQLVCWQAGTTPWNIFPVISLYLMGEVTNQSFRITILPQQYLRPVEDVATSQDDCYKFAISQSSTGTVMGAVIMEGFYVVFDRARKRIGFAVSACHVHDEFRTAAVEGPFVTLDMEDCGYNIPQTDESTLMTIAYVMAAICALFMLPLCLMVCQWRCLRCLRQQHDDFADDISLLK
HDAC1: Histone deacetylase 1 (HDAC1, Homo sapiens, UniProt Q13547)
Chain of UniProt Q13547 (whole entry, looked up): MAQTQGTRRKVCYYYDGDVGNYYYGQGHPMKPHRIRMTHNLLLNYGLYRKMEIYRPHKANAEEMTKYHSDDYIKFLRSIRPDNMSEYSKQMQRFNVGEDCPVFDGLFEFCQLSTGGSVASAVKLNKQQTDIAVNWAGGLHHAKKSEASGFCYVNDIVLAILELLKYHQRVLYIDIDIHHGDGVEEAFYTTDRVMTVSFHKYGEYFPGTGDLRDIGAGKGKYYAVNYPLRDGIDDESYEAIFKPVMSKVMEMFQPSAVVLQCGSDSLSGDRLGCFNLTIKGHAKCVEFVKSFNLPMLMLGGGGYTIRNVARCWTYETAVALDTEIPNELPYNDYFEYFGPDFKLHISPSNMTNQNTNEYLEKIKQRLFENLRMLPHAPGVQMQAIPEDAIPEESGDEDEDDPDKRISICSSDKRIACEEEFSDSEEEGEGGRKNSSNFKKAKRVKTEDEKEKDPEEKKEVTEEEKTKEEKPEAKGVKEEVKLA
Chain of UniProt P11474 (whole entry, looked up): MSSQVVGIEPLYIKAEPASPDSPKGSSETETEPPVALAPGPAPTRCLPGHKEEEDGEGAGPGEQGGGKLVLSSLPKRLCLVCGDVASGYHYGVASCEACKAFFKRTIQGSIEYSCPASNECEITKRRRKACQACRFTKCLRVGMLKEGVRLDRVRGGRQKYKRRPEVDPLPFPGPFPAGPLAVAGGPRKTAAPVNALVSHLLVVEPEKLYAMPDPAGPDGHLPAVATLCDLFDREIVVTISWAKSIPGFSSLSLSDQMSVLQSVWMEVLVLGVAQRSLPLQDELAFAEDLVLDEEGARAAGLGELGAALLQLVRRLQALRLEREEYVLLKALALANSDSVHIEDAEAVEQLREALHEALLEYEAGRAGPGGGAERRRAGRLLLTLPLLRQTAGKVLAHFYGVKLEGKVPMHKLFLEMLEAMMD
Chain of UniProt P35520 (whole entry, looked up): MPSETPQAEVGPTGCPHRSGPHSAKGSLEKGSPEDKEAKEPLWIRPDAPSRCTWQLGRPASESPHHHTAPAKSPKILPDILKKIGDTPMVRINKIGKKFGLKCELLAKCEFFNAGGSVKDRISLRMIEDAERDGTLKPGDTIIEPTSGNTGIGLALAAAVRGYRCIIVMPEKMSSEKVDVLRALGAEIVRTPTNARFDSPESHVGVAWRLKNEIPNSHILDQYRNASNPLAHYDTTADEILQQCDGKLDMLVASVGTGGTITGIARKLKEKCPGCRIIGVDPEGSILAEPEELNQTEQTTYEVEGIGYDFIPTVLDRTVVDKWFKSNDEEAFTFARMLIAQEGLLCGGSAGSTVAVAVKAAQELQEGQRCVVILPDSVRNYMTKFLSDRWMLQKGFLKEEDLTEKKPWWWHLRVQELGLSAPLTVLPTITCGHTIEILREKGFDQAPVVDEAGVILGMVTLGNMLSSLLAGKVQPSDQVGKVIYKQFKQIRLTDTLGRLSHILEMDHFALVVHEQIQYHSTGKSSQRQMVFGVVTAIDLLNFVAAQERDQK
Chain of UniProt P43681 (whole entry, looked up): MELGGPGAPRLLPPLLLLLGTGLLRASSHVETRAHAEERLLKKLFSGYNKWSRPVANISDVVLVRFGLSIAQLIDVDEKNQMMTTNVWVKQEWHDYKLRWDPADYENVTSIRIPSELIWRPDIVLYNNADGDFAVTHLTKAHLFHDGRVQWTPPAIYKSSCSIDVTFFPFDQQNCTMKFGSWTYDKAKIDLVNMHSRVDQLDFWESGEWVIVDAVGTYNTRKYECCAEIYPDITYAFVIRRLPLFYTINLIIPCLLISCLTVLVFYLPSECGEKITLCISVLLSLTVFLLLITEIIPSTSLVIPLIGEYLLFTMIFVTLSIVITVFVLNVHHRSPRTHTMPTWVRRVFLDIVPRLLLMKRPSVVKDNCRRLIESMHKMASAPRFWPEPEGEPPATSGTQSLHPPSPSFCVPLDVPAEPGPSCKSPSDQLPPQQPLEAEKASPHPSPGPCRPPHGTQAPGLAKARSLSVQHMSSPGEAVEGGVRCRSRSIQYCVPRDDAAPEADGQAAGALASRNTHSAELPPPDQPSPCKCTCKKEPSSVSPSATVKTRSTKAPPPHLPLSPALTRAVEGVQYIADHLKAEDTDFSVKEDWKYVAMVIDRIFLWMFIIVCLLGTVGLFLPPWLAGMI

| Compound | target | test | system | conditions | IC50 |
| --- | --- | --- | --- | --- | --- |
| C[C@@H](CNCc1ccccc1)N1C[C@H](CCCNC(=N)N)N(CCc2cccc(F)c2)C1=S | GABAA receptor central benzodiazepine site | binding, radioligand displacement |  | with: flunitrazepam radioligand | > 1 µM |
| CCOC(=O)[C@H](CCCN=C(N)N)NC(=O)c1ccccc1 | Protein-arginine deiminase type-4 (PADI4, Homo sapiens, UniProt Q9UM07) | binding, fluorescence polarisation |  | no calcium, with: fluorescent probe 10 nM | 12500 µM |
| [Cl-].[Cl-].[Cl-].[Tb+3] | Collagenase 3 (MMP13, Homo sapiens, UniProt P45452) | enzyme activity, inhibitor |  | pH 7.5, with preincubation | 8 µM |
| CC1=C(C=O)C(C)(C)CCC1 | Liver carboxylesterase (Sus scrofa, UniProt Q29550) | enzyme activity, inhibitor |  | with preincubation | 33 µM |
| COc1ccc(-n2c(/C=C/c3ccc([N+](=O)[O-])cc3)nc3ccccc3c2=O)cc1 | Grik2 | ion current, inhibitor, two-electrode voltage clamp | Xenopus oocytes | concanavalin A pretreatment, with: 100 µM glutamate | > 300 µM |
| C[C@H]1O[C@@H](O[C@H]2[C@@H](O)C[C@H](O[C@H]3[C@@H](O)C[C@H](O[C@H]4CC[C@@]5(C)[C@H](CC[C@@H]6[C@@H]5C[C@@H](O)[C@]5(C)[C@@H](C7=CC(=O)OC7)CC[C@]65O)C4)O[C@@H]3C)O[C@@H]2C)C[C@H](O)[C@@H]1O | Na+/K+-ATPase (pig cerebral cortex) | enzyme activity, inhibitor, phosphate release colorimetric |  | 30 min, 37 °C, with: ATP-Mg 3 mM | 2.73 ± 0.124 µM |
| N[C@H](C(=O)O)C(F)(F)F | Cystathionine beta-synthase (CBS, Homo sapiens, UniProt P35520) | inhibitor, methylene blue |  | 60 min, with: L-cysteine and homocysteine 1 mM | 66 ± 9 µM |
| N=c1n(Cc2ccccc2)c2ccccc2n1CC(O)COc1cc(F)cc(F)c1 (stereo not shown) | Kir3.1/Kir3.2 | ion flux |  |  | 1.4 µM |
| Cc1cccc(NC(=O)c2sc3nc4c(cc3c2N)CCCCC4)c1 | Serine/threonine-protein kinase pim-1 (PIM1, Homo sapiens, UniProt P11309) | kinase activity, inhibitor, ADP-Glo |  |  | ≤ 5.9 µM |
| O=C(CCCCCCNC(=O)[C@H]1CCCN(C(=O)c2ccc(NC(=O)NC(c3ccccc3)c3ccccc3)c(F)c2)C1)NO | Ephx2 | enzyme activity, inhibitor, fluorescence |  |  | 3.06 µM |
| Cc1cc2ccc(OC(=O)c3ccc(N=C(N)N)cc3)cc2oc1=O | BACE1 | inhibitor, FRET |  | pH 4.5 | 1.5 ± 0.2 µM |
| O=S(=O)(Nc1ccc(Cl)cc1)C1CC2OC1C(c1ccc(O)cc1)=C2c1ccc(O)cc1 (stereo not shown) | Estrogen receptor beta (ESR2, Homo sapiens, UniProt Q92731) | reporter gene, antagonist, luciferase |  |  | 0.1 µM |
| COc1ccc2c(CC(=O)NCCCC[C@H](N)C(=O)N[C@@H](CCC(=O)O)C(=O)N[C@@H](Cc3ccc(CS(=O)(=O)O)cc3)C(=O)N[C@@H](CCC(=O)O)C(=O)N[C@@H](Cc3ccc(CS(=O)(=O)O)cc3)C(=O)N[C@@H](CC(C)C)C(=O)N[C@@H](CC(=O)O)C(=O)N[C@@H](Cc3ccc(CS(=O)(=O)O)cc3)C(=O)N[C@@H](CC(=O)O)C(=O)N[C@@H](Cc3ccccc3)C(=O)N[C@@H](CC(C)C)C(=O)N3CCC[C@H]3C(=O)N[C@@H](CCC(=O)O)C(=O)N[C@H](C(=O)N[C@@H](CCC(=O)O)C(=O)N3CCC[C@H]3C(=O)N[C@@H](CC(C)C)C(=O)O)[C@@H](C)O[C@H]3O[C@H](CO[C@@H]4O[C@H](CO)[C@@H](O[C@@H]5O[C@H](CO)[C@H](O)[C@H](O[C@]6(C(=O)O)C[C@H](O)[C@@H](NC(C)=O)[C@H]([C@H](O)[C@H](O)CO)O6)[C@H]5O)[C@H](O[C@@H]5O[C@@H](C)[C@@H](O)[C@@H](O)[C@@H]5O)[C@H]4NC(C)=O)[C@H](O)[C@H](O[C@@H]4O[C@H](CO)[C@H](O)[C@H](O)[C@H]4O)[C@H]3NC(C)=O)cc(=O)oc2c1 | L-selectin (Mus musculus, UniProt P18337) | PSGL-1 binding, inhibitor, flow cytometry, Fc chimera | mouse neutrophils |  | ~30 µM |
| COC(=O)C1=C(C)NC(C)=C(C(=O)OCCN(C)Cc2ccccc2)C1c1cccc([N+](=O)[O-])c1 (stereo not shown) | Multidrug resistance-associated protein 1 (ABCC1, Homo sapiens, UniProt P33527) | substrate efflux, inhibitor, flow cytometry | ABCC1-overexpressing SupT1-Vin cells | with: BODIPY-FL-forskolin 100 nM | 6.2 ± 6 µM |
| O=c1cc(N2CCOCC2)oc2c(OCc3ccccc3)cccc12 | Phosphatidylinositol 4,5-bisphosphate 3-kinase catalytic subunit alpha isoform (PIK3CA, Homo sapiens, UniProt P42336, Q859D) | enzyme activity, inhibitor |  |  | 2.5 µM |
| O=C(NO)c1ccc(Cn2c(C(F)(F)F)nc3ccccc32)c(F)c1 | HDAC1 | enzyme activity, inhibitor |  |  | 24.6 µM |
| CC(C)C[C@H](NC(=O)[C@H](CC(C)C)NC(=O)[C@@H](Cc1c[nH]c2ccccc12)NC(=O)[C@H](Cc1ccccc1)NC(=O)[C@@H](Cc1c[nH]c2ccccc12)NC(=O)[C@H](CCC(N)=O)NC(=O)[C@H](CCC(N)=O)NC(=O)[C@@H]1CCCN1C(=O)[C@H](CCCCN)NC(=O)[C@@H]1CCCN1C(=O)[C@H](N)CCCN=C(N)N)C(N)=O | Neuromedin-B receptor (NMBR, Homo sapiens, UniProt P28336) | inositol phosphate generation, antagonist | Balb 3T3 expressing NMBR | with: neuromedin B 1 nM | 1.18 ± 0.098 µM |
| O=C1O[C@H]([C@@H](O)CO)C(O)=C1OP(=O)(O)O | mushroom tyrosinase | inhibitor |  | with: L-tyrosine | 246 ± 34.7 µM |
| C=C(C)[C@@H](CC=C(C)C)C[C@@]12C[C@@H](CC=C(C)C)C(C)(C)[C@@](CC=C(C)C)(C(=O)C(C(=O)c3ccc(O)c(O)c3)=C1O)C2=O | Histone acetyltransferase p300 (EP300, Homo sapiens, UniProt Q09472) | enzyme activity, inhibitor, mobility shift |  |  | ~60 µM |
| O=C(N/N=C/c1ccccc1O)c1ccccc1O | Steroid hormone receptor ERR1 (ESRRA, Homo sapiens, UniProt P11474) | reporter gene, inverse agonist, ERRE luciferase | HEK293 co-transfected | basal activity | 8.12 µM |

| Compound | target | test | system | conditions | IC50 |
| --- | --- | --- | --- | --- | --- |
| Fc1ccc(F)cc1 | Neuronal acetylcholine receptor; alpha4/beta2 (Homo sapiens, UniProt P17787+P43681) | ion current, inhibitor, two-electrode voltage clamp | Xenopus oocytes | with: ACh 1 mM | 0.002 atm |
| FC(F)(F)Oc1ccc(Oc2ccnc(N3CCC(NC(=S)Nc4cccnc4)CC3)c2Cl)c(Cl)c1 | Lysophosphatidylserine lipase ABHD12 (Abhd12, Mus musculus, UniProt Q99LR1) | lyso-PS hydrolysis, inhibitor | HEK293T cell lysate | with: lyso-PS 12.5 to 200 µM | 0.005 to 0.07 µM |
| COc1cccc(-n2c(/C=C/c3ccccc3[N+](=O)[O-])nc3ccccc3c2=O)c1 | Grik2 | ion current, inhibitor, two-electrode voltage clamp | Xenopus oocytes | concanavalin A pretreatment, with: 100 µM glutamate | > 300 µM |
| CCC(CC)CSc1nc2c([nH]1)c(=S)n(C)c(=O)n2C | Progesterone receptor (PGR, Homo sapiens, UniProt P06401) | reporter gene, antagonist, luciferase |  |  | 2.3 µM |
| CN(Cc1cc(C(C)(C)C)cc(Br)c1O)Cc1cc(C(C)(C)C)cc(Br)c1O | BACE1 | enzyme activity, inhibitor, FRET |  | pH 4.5 | 645 µM |
| N#Cc1ccc(-c2ccc(Cn3cccc(O)c3=S)cc2)cc1 | HDAC1 | enzyme activity, inhibitor, SAMDI mass spectrometry |  |  | > 10 µM |
| Nc1ccc(C(=O)O)cc1 | mushroom tyrosinase | diphenolase activity, inhibitor |  | pH 6.8, 20 °C, with: caffeic acid substrate | 20 µM and ~20 µM |
| Cc1ccc(OCC(O)Cn2c(=N)n(C)c3ccccc32)cc1 (stereo not shown) | Kir3.1/Kir3.2 | ion flux |  |  | 12.3 µM |
| O=C(O)/C=C/C(=O)NNC(=O)c1cc2ccccc2cn1 | Egl nine homolog 1 (EGLN1, Homo sapiens, UniProt Q9GZT9) | inhibitor, AlphaScreen |  | bimodal curve, rough estimate, with: 2 µM 2-oxoglutarate | 9.7 µM |
| Cc1cccc(OCC(O)Cn2c(=N)n(Cc3ccccc3)c3ccccc32)c1 (stereo not shown) | Kir3.1/Kir3.2 | ion flux |  |  | 4.95 µM |
| Cc1ncc(C(=O)Nc2ccc(CN3CCN(C)CC3)c(C(F)(F)F)c2)cc1C#Cc1cnc(N)c2ncccc12 | Breakpoint cluster region protein/Tyrosine-protein kinase ABL1 (Homo sapiens, UniProt P00519+P11274, T315I) |  |  |  | 0.019 µM |
| CN(C)CC(c1ccc(O)cc1)C1(O)CCCCC1 (stereo not shown) | Sodium-dependent serotonin transporter (Slc6a4, Mus musculus, UniProt Q60857, I172M) | [3H]5-HT uptake | brain synaptosomes | 10 min, pH 7.4, 37 °C, with: [3H]5-HT 100 nM | 7.9 µM |
| CC(/C=C/c1ccc(OCC(=O)Nc2ccccc2)cc1)=N\O | Peroxisome proliferator-activated receptor gamma (PPARG, Homo sapiens, UniProt P37231) | ligand displacement, TR-FRET |  |  | 22.8 µM |
| CCCc1ccc(OCC(=O)N(Cc2nc(-c3cnccn3)no2)C(C)C)cc1 | PSMB5 (Oryctolagus cuniculus, UniProt G1T4Q9) | chymotrypsin-like activity |  | 1 h, 37 °C, with: Suc-LLVY-AMC 20 µM | ~0.1 µM |
| CCOc1ncc(C)c2c1[C@H](c1ccc(C#N)cc1OC)C(C(N)=O)=C(C)N2 | Broad substrate specificity ATP-binding cassette transporter ABCG2 (ABCG2, Homo sapiens, UniProt Q9UNQ0) | transport, inhibitor, Transwell transport | MDCKII expressing human ABCG2 | with: PhIP 2 µM or topotecan 2 µM | 17.4 µM |
| O=C1NC2=C(C(=O)N(c3nc4ccccc4[nH]3)C2)C(c2ccc(O)cc2)N1 (stereo not shown) | Intestinal-type alkaline phosphatase (ALPI, Bos taurus, UniProt P19111) | enzyme activity, inhibitor, absorbance |  | pH 9.5 | 11.3 µM |
| COC(=O)CC[C@@H](C)[C@H]1CC[C@H]2[C@@H]3CC[C@@H]4C[C@H](N)CC[C@]4(C)[C@H]3CC[C@]12C | human 20S proteasome | chymotrypsin-like activity, inhibitor |  | with: PA28 | > 10 µM |
| O=C(Nc1cc(F)c(F)c(F)c1Br)c1cc(S(=O)(=O)N2CCOCC2)c(Cl)cc1Cl | Lysophosphatidic acid receptor 5 (LPAR5, Homo sapiens, UniProt Q9H1C0) | Ca2+ mobilization, antagonist | B103 | with: LPA at EC50 | > 100 µM |
| O=C(CCCCCCNC(=O)[C@H]1CCCN(C(=O)c2ccc(NC(=O)Nc3ccc(OC(F)(F)F)c(Cl)c3)c(F)c2)C1)NO | Ephx2 | enzyme activity, inhibitor, fluorescence |  |  | 0.0009 µM |
| O=C(O)c1cc2c(C(F)(F)F)cc(-c3ccccc3)cc2n1O | L-lactate dehydrogenase A chain (LDHA, Homo sapiens, UniProt P00338) | inhibitor, NADH fluorescence |  | NADH competition, with: 1440 µM pyruvate, 40 µM NADH | 29 ± 3 µM |

A few entries again:
| Compound | target | test | system | conditions | IC50 |
| --- | --- | --- | --- | --- | --- |
| COc1cccc(-n2c(/C=C/c3ccccc3[N+](=O)[O-])nc3ccccc3c2=O)c1 | Grik2 | ion current, inhibitor, two-electrode voltage clamp | Xenopus oocytes | concanavalin A pretreatment, with: 100 µM glutamate | > 300 µM |
| CCC(CC)CSc1nc2c([nH]1)c(=S)n(C)c(=O)n2C | Progesterone receptor (PGR, Homo sapiens, UniProt P06401) | reporter gene, antagonist, luciferase |  |  | 2.3 µM |
| CN(Cc1cc(C(C)(C)C)cc(Br)c1O)Cc1cc(C(C)(C)C)cc(Br)c1O | BACE1 | enzyme activity, inhibitor, FRET |  | pH 4.5 | 645 µM |
| N#Cc1ccc(-c2ccc(Cn3cccc(O)c3=S)cc2)cc1 | HDAC1 | enzyme activity, inhibitor, SAMDI mass spectrometry |  |  | > 10 µM |
| Nc1ccc(C(=O)O)cc1 | mushroom tyrosinase | diphenolase activity, inhibitor |  | pH 6.8, 20 °C, with: caffeic acid substrate | 20 µM and ~20 µM |
| Cc1ccc(OCC(O)Cn2c(=N)n(C)c3ccccc32)cc1 (stereo not shown) | Kir3.1/Kir3.2 | ion flux |  |  | 12.3 µM |
